Measured values collected from several papers.
Each numbered part is a random draw from the data of one study; scales do not carry over between parts. Positions count from the first letter of the parent shown.

Series 1
Target: Histone acetyltransferase KAT6A, both winged helices, GST fusion (KAT6A, Homo sapiens, UniProt Q92794, residues 1-181)
Method: protein binding microarray
Form: double-stranded DNA, one strand shown
Matrix: in vitro
Concentration: not given
Setting: 8-mer, flanks averaged, mean of 2 arrays, mostly near background
Baseline: not given
Reading: higher = stronger binding
Quantity: E-score
Construct (chain): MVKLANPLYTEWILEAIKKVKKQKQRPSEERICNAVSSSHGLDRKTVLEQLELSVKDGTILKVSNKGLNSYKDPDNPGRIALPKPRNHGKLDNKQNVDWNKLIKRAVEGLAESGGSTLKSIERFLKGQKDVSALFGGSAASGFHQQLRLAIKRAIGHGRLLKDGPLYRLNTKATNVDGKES
CAACATTG: -0.11
AAATGGCC: 0.0992
AGGTTCTC: -0.0171
CGAGTTCA: -0.135
CGGCGCTC: 0.302
CAATTAAG: 0.0164
ATTACACA: -0.0398
CCTTATGC: -0.128

Series 2
Target: Interferon regulatory factor 5, full length, phosphomimetic (IRF5, Homo sapiens, UniProt Q13568-2, residues 1-514, K96S/S451D/S453D/S456D/S462D)
Method: protein-binding microarray
Form: double-stranded DNA, one strand shown
Matrix: in vitro
Concentration: 250 nM
Setting: 60-bp whole probe
Added: salmon DNA 0.4 mg/ml
Baseline: random background probes
Reading: higher = stronger binding
Quantity: log fluorescence
Shared flanks, not repeated: GCCTAGCAC … GTCTTGATTCGCTTGACGCTGCTG
GACGGTTTCGACTATCGTGACGTGCTA: 6.4 z-score
GACGGTCTCCTTCTACTGACGTGCTAG: 0.0598 z-score
GACTGTCTCGGACTGGGGACGTGCTAG: -0.44 z-score
GACGGACTGAGTTTCGGGACGTGCTAG: 4.8 z-score
TTAGACTTCAGTTCCGATTAGTGCTAG: 1.13 z-score
GACGAATTCAGTTCCGAGACGTGCTAG: 0.063 z-score
GACGATCTTAGTATCGAGACGTGCTAG: 2.14 z-score
CACGGTCTCCTTCTCCTGACGTGCTAG: -0.0176 z-score

Series 3
Target: CCND2, cyclin fold, Cln2 fusion (human)
Method: yeast growth competition, sequencing
Matrix: yeast
Setting: weak parent motif
Baseline: not given
Reading: higher = stronger binding
Quantity: normalised enrichment score
Starting sequence: GMNC docking peptide (human); KNAKRNLSSEFAN; partner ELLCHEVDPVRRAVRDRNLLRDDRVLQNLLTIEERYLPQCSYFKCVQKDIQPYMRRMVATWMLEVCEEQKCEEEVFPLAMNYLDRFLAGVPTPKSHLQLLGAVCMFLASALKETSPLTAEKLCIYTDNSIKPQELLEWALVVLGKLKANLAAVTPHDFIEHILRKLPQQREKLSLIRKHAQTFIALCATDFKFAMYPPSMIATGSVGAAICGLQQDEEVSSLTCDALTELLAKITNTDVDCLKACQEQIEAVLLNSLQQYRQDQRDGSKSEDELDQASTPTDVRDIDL
KNAKRCLSSEFAN [N6C]: -0.102
KNAKRNLTSEFAN [S8T]: -0.184
KNAKYNLSSEFAN [R5Y]: 0.0519
KNAKRGLSSEFAN [N6G]: 0.114
KNGKRNLSSEFAN [A3G]: -0.0654
KEAKRNLSSEFAN [N2E]: 0.185
KNPKRNLSSEFAN [A3P]: -0.22
KNAKRNLSPEFAN [S9P]: 0.262

Single results of other studies
KSLTTTMQFK  binding (HLA class I histocompatibility antigen, C alpha chain, allele C*04:01 (Homo sapiens, UniProt P10321); peptide-MHC binding; peptide; concentration not given): inactive

Repeated from above (series 1):
AGGTTCTC: -0.0171
CGAGTTCA: -0.135
CGGCGCTC: 0.302
CAATTAAG: 0.0164
